Experimental data of several laboratories.
A part holds a random share of what one study measured. Several values in a cell are separate wells, animals, samples, runs or records.
Chain of UniProt P23975 (whole entry, looked up): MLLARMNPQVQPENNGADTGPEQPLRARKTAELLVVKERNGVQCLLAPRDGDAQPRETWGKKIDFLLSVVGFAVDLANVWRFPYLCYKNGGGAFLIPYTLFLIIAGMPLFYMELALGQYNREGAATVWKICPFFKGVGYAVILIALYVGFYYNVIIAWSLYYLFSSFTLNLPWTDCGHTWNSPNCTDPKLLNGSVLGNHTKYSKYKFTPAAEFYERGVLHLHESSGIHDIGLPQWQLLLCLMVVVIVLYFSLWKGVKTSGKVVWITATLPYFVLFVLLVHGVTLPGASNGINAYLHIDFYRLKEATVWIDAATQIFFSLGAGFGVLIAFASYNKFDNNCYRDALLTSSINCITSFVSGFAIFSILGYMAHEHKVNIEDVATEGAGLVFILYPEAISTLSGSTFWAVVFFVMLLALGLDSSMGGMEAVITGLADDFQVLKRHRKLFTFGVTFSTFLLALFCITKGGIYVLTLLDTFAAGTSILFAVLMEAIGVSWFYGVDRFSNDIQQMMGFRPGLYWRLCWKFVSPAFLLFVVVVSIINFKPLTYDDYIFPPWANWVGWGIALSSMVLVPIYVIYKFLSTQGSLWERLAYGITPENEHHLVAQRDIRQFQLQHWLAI
Chain of UniProt P11229 (whole entry, looked up): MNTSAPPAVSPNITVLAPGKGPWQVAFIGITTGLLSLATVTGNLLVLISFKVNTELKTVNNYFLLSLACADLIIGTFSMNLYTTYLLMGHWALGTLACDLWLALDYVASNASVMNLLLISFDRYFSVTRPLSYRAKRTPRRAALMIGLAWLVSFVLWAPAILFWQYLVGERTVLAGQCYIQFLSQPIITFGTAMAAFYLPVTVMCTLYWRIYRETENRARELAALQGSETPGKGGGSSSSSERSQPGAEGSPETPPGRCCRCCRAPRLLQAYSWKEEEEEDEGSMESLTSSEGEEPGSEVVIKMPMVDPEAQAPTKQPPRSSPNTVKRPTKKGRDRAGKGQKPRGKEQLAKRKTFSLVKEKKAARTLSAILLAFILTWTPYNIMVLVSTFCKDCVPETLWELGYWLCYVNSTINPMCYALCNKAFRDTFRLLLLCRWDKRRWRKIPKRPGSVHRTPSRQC
Chain of UniProt Q01959 (whole entry, looked up): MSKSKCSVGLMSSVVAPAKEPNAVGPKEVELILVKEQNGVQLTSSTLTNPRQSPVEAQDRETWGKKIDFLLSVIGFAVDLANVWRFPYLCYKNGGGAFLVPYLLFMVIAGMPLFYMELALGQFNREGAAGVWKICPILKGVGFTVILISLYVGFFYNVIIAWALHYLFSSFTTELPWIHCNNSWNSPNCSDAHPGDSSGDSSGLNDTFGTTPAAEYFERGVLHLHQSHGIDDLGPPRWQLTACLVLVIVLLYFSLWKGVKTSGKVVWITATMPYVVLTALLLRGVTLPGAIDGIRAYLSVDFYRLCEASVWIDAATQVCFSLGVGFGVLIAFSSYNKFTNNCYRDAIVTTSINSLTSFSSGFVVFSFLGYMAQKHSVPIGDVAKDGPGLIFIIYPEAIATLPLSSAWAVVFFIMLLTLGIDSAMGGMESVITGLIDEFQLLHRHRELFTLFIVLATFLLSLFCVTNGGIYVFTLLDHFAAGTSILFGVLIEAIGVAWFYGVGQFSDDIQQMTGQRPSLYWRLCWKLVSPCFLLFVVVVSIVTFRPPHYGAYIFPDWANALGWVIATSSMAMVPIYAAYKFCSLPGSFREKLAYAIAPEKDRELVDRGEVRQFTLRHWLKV
Chain of UniProt P41145 (whole entry, looked up): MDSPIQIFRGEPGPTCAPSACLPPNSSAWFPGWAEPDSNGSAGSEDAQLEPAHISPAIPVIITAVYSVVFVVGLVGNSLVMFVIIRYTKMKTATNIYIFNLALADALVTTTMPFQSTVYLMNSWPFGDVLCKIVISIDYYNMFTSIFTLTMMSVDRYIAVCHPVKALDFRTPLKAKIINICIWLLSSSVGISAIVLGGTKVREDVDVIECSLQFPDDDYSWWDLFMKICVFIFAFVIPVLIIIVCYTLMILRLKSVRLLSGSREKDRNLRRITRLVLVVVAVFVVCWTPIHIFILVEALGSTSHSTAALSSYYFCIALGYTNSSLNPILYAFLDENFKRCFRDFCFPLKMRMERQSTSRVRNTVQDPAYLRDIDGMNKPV
Chain of UniProt P20309 (whole entry, looked up): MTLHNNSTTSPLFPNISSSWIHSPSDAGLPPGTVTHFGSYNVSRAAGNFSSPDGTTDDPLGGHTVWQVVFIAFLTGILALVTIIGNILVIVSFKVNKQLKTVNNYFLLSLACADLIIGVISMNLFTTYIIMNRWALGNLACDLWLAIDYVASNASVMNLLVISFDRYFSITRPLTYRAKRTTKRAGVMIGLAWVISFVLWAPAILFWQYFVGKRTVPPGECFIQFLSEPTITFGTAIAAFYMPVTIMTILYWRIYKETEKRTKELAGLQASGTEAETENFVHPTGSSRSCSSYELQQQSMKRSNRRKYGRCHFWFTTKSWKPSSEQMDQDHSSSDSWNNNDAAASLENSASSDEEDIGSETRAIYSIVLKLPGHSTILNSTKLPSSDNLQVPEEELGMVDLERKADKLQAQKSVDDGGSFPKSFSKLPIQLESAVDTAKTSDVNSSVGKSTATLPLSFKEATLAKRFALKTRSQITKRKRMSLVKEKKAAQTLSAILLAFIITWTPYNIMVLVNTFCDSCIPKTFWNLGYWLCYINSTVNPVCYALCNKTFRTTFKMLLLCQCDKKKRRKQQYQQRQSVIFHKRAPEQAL

Block 1
SMILES: CNCc1ccc(-c2[nH]c3cc(F)cc4c3c2CCNC4=O)cc1
Notes: unit not given
Reference: untreated
cell line	setting	clonogenic survival
RPE-1 BRCA2-/-	0.5 µM	0
RPE-1 BRCA1-/-	0.01 µM	0.127 and 0.312 and 0.068
RPE-1 BRCA2-/-	0.01 µM	0.299 and 0.131 and 0.21
RPE-1 BRCA2-/-	1 µM	0 and 0.00885
RPE-1 BRCA1-/-	1 µM	0
RPE-1 BRCA1-/-	0.25 µM	0 and 0.0068

Block 2
Cell line: HEK-293T/ACE2
Concentration: concentration not given
Time: 16 (unit not given)
Reference: vehicle
SMILES	viability
Cc1nc2n(c(=O)c1CCN1CCC(c3noc4cc(F)ccc34)CC1)CCCC2O (stereo not drawn)	95.7%
CCCN1CCCC[C@H]1C(=O)Nc1c(C)cccc1C	100%
CCCCC(=O)O[C@]1(C(=O)CO)CC[C@H]2[C@@H]3CCC4=CC(=O)CC[C@]4(C)[C@H]3[C@@H](O)C[C@@]21C	102%
CC1=C(C/C=C(\C)CCC[C@H](C)CCC[C@H](C)CCCC(C)C)C(=O)c2ccccc2C1=O	97.3%
C[C@H]1O[C@H](O[C@H]2[C@H](O)[C@@H](O)[C@@H](O[C@H]3[C@H](O)[C@@H](O)C(O)O[C@@H]3CO)O[C@@H]2CO)[C@H](O)[C@@H](O)[C@@H]1N[C@H]1C=C(CO)[C@@H](O)[C@H](O)[C@H]1O (stereo partly drawn)	103%
CN(C)c1cc(NC(=O)CNC(C)(C)C)c(O)c2c1C[C@H]1C[C@H]3[C@H](N(C)C)C(O)=C(C(N)=O)C(=O)[C@@]3(O)C(O)=C1C2=O	100%
CCN(CC)CCNC(=O)c1c(C)[nH]c(/C=C2\C(=O)Nc3ccc(F)cc32)c1C	98.7%
O=C1[C@H](CC[C@H](O)c2ccc(F)cc2)[C@@H](c2ccc(O)cc2)N1c1ccc(F)cc1	101%

Block 3
Organism: Sarcocystis neurona
Observed: parasite growth
Concentration: 10 µM
Notes: secondary screen
SMILES	inhibition [%]
O=C1Nc2ccc(Cl)cc2C(c2ccccc2Cl)=NC1O (stereo not drawn)	-8.6
CC(C)[C@]12O[C@H]1[C@@H]1O[C@]13[C@]1(O[C@H]1C[C@H]1C4=C(CC[C@@]13C)C(=O)OC4)[C@@H]2O	82.2
COc1ccc2[nH]cc(CCN)c2c1	-33.2
CCCC(C)(COC(N)=O)COC(=O)NC(C)C (stereo not drawn)	-32.8
O=C1CC[C@@]2(O)[C@H]3Cc4ccc(O)c5c4[C@@]2(CCN3CC2CC2)[C@H]1O5	-38.4

Block 4
Structure (SMILES): O=C(NCc1ncc(C(F)(F)F)cc1Cl)c1ccc2c(c1)C1(CCS(=O)(=O)CC1)[C@H](C1CC1)N2S(=O)(=O)c1ccc(F)cc1
Concentration: 10 µM
target	assay	inhibition [%]
Kappa-type opioid receptor (OPRK1, Homo sapiens, UniProt P41145)	ligand displacement	14.4
Sodium-dependent noradrenaline transporter (SLC6A2, Homo sapiens, UniProt P23975)	cell-free assay	1.03
Muscarinic acetylcholine receptor M3 (CHRM3, Homo sapiens, UniProt P20309)	ligand displacement	18.1
Sodium-dependent dopamine transporter (SLC6A3, Homo sapiens, UniProt Q01959)	cell-free assay	-20.2
Muscarinic acetylcholine receptor M1 (CHRM1, Homo sapiens, UniProt P11229)	ligand displacement	-2.96
